# Assay results gathered from unrelated publications.
# Protein sequences, listed by entry. Tags and fused reporters are not part of them. Residues count along the entry.
# UniProt P26842, whole entry, looked up: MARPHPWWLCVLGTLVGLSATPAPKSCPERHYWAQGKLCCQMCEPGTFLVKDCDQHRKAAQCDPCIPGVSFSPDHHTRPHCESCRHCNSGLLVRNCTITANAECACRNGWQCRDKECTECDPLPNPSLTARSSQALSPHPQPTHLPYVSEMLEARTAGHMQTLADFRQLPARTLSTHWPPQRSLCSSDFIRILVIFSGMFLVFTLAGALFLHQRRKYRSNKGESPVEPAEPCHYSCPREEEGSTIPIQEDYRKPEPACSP
# UniProt Q07011, 24-255 limits assumed: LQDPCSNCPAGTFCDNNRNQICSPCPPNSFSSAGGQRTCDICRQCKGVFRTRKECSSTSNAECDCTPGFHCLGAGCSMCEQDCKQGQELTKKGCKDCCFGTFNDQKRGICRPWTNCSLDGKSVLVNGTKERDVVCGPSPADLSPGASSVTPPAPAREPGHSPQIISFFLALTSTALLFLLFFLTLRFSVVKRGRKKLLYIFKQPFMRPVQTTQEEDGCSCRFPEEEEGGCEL
# UniProt Q07011, whole entry, looked up: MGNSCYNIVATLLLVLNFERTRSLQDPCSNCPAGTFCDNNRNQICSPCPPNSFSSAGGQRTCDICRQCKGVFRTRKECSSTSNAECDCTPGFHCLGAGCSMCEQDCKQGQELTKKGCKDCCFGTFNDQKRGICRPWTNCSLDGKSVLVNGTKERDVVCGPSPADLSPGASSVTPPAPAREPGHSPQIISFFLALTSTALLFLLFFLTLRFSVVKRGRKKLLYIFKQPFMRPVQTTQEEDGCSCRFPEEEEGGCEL
# UniProt Q8VIJ5, whole entry: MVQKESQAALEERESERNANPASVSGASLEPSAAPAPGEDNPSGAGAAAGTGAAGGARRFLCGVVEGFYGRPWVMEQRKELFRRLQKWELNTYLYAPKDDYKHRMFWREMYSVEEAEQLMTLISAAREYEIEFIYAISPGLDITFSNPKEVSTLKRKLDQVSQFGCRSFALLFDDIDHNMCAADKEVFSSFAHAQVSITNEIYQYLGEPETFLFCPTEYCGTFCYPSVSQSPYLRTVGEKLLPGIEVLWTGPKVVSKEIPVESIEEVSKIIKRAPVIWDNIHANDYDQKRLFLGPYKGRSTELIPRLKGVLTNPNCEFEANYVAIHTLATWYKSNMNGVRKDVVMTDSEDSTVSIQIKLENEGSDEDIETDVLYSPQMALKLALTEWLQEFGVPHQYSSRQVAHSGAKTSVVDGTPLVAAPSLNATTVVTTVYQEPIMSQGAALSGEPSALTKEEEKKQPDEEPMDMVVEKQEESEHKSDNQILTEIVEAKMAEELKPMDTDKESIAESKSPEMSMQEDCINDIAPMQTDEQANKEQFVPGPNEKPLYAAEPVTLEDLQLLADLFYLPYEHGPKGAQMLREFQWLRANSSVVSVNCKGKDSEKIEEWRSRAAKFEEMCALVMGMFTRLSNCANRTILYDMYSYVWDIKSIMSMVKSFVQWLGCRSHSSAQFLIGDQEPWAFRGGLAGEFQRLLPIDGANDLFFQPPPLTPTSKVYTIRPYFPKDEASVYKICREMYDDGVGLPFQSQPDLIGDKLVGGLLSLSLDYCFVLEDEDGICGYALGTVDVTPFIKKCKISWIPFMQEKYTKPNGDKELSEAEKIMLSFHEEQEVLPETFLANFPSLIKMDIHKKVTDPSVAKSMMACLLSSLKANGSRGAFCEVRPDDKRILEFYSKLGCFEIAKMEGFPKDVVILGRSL
# UniProt Q9UGL1, 1-100 limits assumed: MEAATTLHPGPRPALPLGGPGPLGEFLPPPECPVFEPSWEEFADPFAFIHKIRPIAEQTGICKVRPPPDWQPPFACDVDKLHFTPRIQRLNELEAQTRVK
# UniProt Q9UGL1, 375-604 limits assumed: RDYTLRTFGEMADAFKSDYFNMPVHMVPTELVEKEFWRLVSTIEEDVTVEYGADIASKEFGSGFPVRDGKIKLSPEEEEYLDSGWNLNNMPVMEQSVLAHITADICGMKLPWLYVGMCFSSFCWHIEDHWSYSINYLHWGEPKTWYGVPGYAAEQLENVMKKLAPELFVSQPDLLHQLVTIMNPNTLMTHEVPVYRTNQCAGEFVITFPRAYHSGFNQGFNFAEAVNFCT
# UniProt P62942, whole entry F37V: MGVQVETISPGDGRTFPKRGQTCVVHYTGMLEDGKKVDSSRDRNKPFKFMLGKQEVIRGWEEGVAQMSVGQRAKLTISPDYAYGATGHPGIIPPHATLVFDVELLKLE
# UniProt Q9H7M9, whole entry, looked up: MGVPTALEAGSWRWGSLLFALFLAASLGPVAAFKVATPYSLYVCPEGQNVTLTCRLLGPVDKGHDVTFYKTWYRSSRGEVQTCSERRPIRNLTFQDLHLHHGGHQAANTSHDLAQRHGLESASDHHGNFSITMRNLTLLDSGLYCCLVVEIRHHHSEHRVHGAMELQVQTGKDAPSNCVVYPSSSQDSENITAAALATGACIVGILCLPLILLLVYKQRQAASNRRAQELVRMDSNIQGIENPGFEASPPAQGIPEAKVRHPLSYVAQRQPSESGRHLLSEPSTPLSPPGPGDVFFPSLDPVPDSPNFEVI
# UniProt Q8TDQ0, whole entry, looked up: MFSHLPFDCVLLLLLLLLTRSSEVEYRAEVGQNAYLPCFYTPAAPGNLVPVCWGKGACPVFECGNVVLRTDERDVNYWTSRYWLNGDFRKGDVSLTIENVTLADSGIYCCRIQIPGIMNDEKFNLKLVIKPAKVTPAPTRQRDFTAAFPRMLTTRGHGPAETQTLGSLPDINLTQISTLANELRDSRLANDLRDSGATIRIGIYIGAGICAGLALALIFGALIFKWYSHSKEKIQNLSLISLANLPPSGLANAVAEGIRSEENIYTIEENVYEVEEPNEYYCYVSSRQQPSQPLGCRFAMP
# UniProt P10747, whole entry, looked up: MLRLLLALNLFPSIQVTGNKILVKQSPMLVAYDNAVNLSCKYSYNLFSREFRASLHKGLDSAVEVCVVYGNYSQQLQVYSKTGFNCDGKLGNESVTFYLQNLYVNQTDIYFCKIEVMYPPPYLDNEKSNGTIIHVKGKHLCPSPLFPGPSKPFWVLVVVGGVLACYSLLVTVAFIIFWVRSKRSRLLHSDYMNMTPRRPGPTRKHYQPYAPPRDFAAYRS
# UniProt P21964, 51-271 limits assumed: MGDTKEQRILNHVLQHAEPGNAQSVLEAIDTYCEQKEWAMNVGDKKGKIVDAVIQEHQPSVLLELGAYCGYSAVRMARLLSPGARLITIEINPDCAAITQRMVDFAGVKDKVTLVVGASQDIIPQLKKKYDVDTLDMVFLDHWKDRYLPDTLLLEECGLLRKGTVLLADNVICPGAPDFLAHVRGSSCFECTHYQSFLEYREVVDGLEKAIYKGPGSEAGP
# UniProt O95433, whole entry: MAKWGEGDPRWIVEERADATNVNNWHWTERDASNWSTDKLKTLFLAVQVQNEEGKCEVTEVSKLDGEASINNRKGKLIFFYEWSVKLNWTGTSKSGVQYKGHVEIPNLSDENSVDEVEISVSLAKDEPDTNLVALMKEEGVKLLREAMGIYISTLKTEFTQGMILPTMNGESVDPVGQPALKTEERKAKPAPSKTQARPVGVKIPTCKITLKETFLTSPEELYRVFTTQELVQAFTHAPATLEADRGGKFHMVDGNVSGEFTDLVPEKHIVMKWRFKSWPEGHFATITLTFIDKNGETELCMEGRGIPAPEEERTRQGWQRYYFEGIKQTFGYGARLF
# UniProt Q7Z6A9, whole entry, looked up: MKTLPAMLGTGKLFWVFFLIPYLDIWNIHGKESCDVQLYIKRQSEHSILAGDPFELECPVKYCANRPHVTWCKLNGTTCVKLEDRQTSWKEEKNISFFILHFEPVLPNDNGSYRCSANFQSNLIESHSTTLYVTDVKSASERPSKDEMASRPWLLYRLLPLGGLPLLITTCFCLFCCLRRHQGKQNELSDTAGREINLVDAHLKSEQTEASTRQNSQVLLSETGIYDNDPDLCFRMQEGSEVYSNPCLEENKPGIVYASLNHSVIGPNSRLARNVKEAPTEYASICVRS
# UniProt P55217, 69-563 limits assumed: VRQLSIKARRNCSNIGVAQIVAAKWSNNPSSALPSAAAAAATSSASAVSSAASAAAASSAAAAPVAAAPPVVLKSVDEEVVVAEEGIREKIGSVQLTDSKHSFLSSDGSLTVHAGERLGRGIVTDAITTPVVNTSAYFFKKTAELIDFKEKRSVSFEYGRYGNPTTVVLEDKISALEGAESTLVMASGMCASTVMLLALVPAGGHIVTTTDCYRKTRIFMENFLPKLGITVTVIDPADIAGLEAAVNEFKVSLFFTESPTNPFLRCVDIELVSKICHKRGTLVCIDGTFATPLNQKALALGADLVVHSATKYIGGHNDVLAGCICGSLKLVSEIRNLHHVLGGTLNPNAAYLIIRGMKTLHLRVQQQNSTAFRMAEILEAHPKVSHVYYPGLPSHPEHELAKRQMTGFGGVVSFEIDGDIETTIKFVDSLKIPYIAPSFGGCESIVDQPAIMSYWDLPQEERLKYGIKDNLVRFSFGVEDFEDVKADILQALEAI
# UniProt Q05097, whole entry, looked up: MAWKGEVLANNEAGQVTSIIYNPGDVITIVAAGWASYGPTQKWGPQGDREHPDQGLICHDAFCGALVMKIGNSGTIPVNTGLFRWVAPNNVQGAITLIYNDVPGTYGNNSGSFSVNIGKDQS
# UniProt O95619, 1-148 limits assumed: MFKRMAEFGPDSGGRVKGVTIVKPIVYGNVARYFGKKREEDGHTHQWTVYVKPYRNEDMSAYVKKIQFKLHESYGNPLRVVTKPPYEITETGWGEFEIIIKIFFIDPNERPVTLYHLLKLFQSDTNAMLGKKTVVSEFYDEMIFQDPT
# UniProt P0DMS8, whole entry: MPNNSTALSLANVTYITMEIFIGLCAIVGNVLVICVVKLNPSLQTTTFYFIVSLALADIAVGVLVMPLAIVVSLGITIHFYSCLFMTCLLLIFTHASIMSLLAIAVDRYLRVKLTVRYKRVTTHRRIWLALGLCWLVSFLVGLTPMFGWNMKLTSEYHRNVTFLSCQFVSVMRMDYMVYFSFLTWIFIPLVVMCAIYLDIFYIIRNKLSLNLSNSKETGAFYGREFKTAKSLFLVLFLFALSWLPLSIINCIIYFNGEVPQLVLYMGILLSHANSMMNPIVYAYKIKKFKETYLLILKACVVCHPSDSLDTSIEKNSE
# UniProt Q86U86, whole entry L207V, looked up: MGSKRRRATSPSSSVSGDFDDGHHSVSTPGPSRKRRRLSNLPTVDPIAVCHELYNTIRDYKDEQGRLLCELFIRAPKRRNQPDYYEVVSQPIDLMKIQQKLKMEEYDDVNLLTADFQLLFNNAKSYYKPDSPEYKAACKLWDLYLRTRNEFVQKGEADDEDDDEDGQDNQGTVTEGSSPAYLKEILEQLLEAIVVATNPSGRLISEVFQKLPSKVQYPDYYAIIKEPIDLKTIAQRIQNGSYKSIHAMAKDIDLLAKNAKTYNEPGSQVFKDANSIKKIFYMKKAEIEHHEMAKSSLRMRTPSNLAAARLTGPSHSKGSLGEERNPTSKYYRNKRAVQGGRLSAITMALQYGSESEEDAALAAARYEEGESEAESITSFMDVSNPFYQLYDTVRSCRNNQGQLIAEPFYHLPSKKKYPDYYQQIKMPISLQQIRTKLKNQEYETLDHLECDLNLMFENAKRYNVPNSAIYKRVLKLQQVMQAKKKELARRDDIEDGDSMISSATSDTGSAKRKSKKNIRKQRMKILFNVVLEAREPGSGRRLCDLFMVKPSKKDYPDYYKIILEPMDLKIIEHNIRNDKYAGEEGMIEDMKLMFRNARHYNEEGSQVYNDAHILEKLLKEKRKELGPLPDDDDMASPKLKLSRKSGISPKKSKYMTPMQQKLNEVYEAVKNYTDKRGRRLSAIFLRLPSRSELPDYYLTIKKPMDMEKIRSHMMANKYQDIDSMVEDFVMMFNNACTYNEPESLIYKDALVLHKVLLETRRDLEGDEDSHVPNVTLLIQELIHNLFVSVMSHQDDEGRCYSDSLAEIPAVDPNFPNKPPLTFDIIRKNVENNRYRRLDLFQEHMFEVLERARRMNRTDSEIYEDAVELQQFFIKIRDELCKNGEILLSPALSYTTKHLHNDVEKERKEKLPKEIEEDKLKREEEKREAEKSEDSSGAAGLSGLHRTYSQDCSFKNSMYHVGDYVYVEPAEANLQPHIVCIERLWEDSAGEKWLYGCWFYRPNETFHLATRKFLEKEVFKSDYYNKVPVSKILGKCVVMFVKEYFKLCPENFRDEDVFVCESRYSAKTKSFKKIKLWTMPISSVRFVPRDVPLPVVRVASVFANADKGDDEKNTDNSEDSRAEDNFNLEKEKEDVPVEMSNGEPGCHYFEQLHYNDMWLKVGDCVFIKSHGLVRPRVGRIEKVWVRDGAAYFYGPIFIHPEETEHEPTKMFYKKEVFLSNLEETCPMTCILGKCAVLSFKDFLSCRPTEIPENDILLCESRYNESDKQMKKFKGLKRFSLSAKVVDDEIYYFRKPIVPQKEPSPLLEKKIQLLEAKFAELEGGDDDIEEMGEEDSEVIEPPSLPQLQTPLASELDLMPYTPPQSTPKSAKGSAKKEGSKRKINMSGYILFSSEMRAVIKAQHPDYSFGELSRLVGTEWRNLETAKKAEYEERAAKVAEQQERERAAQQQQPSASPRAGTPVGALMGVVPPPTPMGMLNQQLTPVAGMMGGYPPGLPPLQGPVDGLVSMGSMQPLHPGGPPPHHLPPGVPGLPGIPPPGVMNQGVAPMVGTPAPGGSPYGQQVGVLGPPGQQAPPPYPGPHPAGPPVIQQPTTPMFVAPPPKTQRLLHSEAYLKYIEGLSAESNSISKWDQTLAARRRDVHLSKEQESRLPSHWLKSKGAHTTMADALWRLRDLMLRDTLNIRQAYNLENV
# Protocols differ between the studies behind these lines. “And” joins repeats or separate records; there may be more than shown. ± gives the spread as reported.
# RPA1 N-terminal domain: Replication protein A 70 kDa DNA-binding subunit, N-terminal domain (RPA1, Homo sapiens, UniProt P27694)
# CD27: CD27 antigen (CD27, Homo sapiens, UniProt P26842)
# EPHA2: Ephrin type-A receptor 2 (EPHA2, Homo sapiens, UniProt P29317)
# Tumor necrosis factor receptor superfamily member 9: Tumor necrosis factor receptor superfamily member 9 (Homo sapiens, UniProt Q07011)
Compound,tested on,test,system,setting,scale,quantity,result
COc1ccc([C@H]2OC[C@H](C)[C@@H]([C@@H](C)[C@@H](OC)[C@@H](C)/C=C/C(=O)[C@H](C)[C@@H](C/C=C/N(C)C=O)OC)O2)cc1,"Actin, alpha skeletal muscle, monomeric (ACTA1, Oryctolagus cuniculus, UniProt P68135)",Prodan fluorescence titration,G-actin,"pH 8.0, added: 0.2 mM ATP",,Kd,0.132 ± 0.0134 µM
CC(=O)Nc1ncc(CN2CC[C@H](Oc3cccc(F)n3)C[C@@H]2C)s1 [isotope labelled],"Protein O-GlcNAcase (Rattus norvegicus, UniProt Q8VIJ5)",saturation binding,rat cerebellum homogenate,radiolabelled compound,,Kd,0.0013 ± 0.0004 µM
CCCCCCCCCCCCCCCCCC(=O)O[C@@H](CN=[N+]=[N-])[C@H](COP(=O)(O)O)OC(=O)CCCCCCCCCCCCCCCCC,"Protein kinase C alpha type, C2 domain (PRKCA, Homo sapiens, UniProt P17252)","PKCα C2 domain binding, surface plasmon resonance",POPC:POPE:PA 55:40:5 vesicles,"pH 7.4, 25 °C, 5 mol% PA, added: 1 mM CaCl2",,Kd,0.73 ± 0.13 µM
COc1cc(C(=O)N2CCC(N3CCN(C)CC3)CC2)ccc1Nc1ncc2c(n1)N(C1CCCC1)c1ccccc1C(=O)N2C,"Bromodomain-containing protein 4, BD1 (BRD4, Homo sapiens, UniProt O60885)",isothermal titration calorimetry,,,,Kd,0.156 ± 0.012 µM
O=C(O)c1ccncc1Nc1nn(CCN2CCC(F)(F)CC2)c2ccc(F)cc12,"KDM5B (Homo sapiens, UniProt Q9UGL1)","binding, isothermal titration calorimetry",,,,Kd,0.025 to 0.05 µM
CC[C@H](C(=O)N1CCCC[C@H]1C(=O)O[C@H](CCc1ccc(OC)c(OC)c1)c1cccc(OCC(=O)OC(C)(C)C)c1)c1cc(OC)c(OC)c(OC)c1,"FKBP1A (Homo sapiens, UniProt P62942, F37V)","binding, surface plasmon resonance",,,,Kd,0.016 µM
O=C1CC(N2CCN(c3ncc(C(F)(F)F)cc3Cl)CC2)C(=O)N1c1ccc(Cl)cc1 (centres unmarked),"VSIR (Homo sapiens, UniProt Q9H7M9)",microscale thermophoresis,,,,Kd,7.52 µM
OC1CCN(c2ncc(-c3cc4ccc(F)cc4[nH]3)cn2)CC1 [isotope labelled],"Alpha-synuclein, aggregated (SNCA, Homo sapiens, UniProt P37840)","binding, homologous saturation binding, Scatchard",Parkinson's disease brain homogenate,,,Kd,0.089 ± 0.01 µM
COc1ccccc1NC(=O)c1ccc(NC(=O)C(C)Sc2ccc(NC(C)=O)cc2)cc1 (centres unmarked),"Hepatitis A virus cellular receptor 2 (Homo sapiens, UniProt Q8TDQ0)",microscale thermophoresis,,,,Kd,0.92 µM
Cc1ccc(C(=O)Nc2ccc(F)cc2C(=O)O)cc1S(=O)(=O)Nc1ccc(Br)cc1,RPA1 N-terminal domain,"binding, fluorescence polarisation competition",,added: FITC-ATRIP probe,,Kd,48 ± 8 µM
Cc1ccc(O)c(C(=O)c2cnc3c(c2)c(C)nn3-c2ccc([N+](=O)[O-])cc2)c1,CD27,"binding, microscale thermophoresis",,,,Kd,2.04 µM
Cc1ccc(C(=O)Nc2ccc(C(C)C)cc2C(=O)O)cc1S(=O)(=O)Nc1ccc(Cl)c(Cl)c1,RPA1 N-terminal domain,"binding, fluorescence polarisation competition",,added: FITC-ATRIP probe,,Kd,3 ± 0.012 µM
Cc1ccc(C(=O)Nc2cccc(C(F)(F)F)c2)cc1Nc1nc(-c2cnccn2)nc2c1cnn2C,EPHA2,Kinobeads competition pulldown,mixed cancer cell lysate,,,Kd,0.135 µM
CN1C(=N)NC(=O)/C1=C/c1cc(Br)c(O)c(Br)c1,"Transthyretin (TTR, Homo sapiens, UniProt P02766)","binding, isothermal titration calorimetry",,"first site, two-site model",,Kd,0.026 µM
NC(=O)c1ccc(-n2cccc2Cc2c(F)cccc2F)cc1N[C@H]1CC[C@H](O)CC1,"HSP90AA1 (Homo sapiens, UniProt P07900)",fluorescence polarization,,added: FITC-geldanamycin,,Kd,> 100 µM
CC(=O)c1ccc(-c2cc(NCCO)nc3[nH]ccc23)nc1,CD27,"binding, microscale thermophoresis",,,,Kd,8.62 µM
O=C(NCc1nc(-c2ccncc2)no1)c1cc2c(cn1)OCCC2,"CD28 (Homo sapiens, UniProt P10747)",microscale thermophoresis,,2% DMSO,,Kd,24.3 ± 11.8 µM
C/C=C/Cn1c(Cc2cc(OC)c(OC)c(OC)c2)nc2c(N)ncnc21,"Heat shock protein HSP 90-alpha, N-terminal domain (HSP90AA1, Homo sapiens, UniProt P07900, S52A)",isothermal titration calorimetry,,"298 K, N-terminal domain S52A",,Kd,4.2 µM and 4.15 µM
Cc1ccc(C(=O)Nc2ccc(C(C)C)cc2C(=O)O)cc1S(=O)(=O)Nc1cccc(Cl)c1,RPA1 N-terminal domain,"binding, fluorescence polarisation competition",,added: FITC-ATRIP probe,,Kd,7 ± 0.25 µM
CCn1nccc1N=CC1=Cc2cc3c(cc2[C@@H](c2cc(OC)c(OC)c(OC)c2)[C@@H]1C(=O)OC)OCO3,Leishmania,,mouse splenocytes,,relative to: CC50 over amastigote EC50,selectivity index,0.3
Cc1ccc(C(=O)Nc2ccc(C(C)C)cc2C(=O)O)cc1S(=O)(=O)Nc1ccc(Br)cc1,RPA1 N-terminal domain,"binding, fluorescence polarisation competition",,added: FITC-ATRIP probe,,Kd,9 ± 0.54 µM
N[C@@H](CCSC[C@H]1O[C@@H](n2cnc3c(NCCCCNC(=O)CC(NC(=O)c4ccc(C5(C(F)(F)F)N=N5)cc4)C(=O)NCCCOCCOCCOCCCNC(=S)Nc4ccc5c(c4)C(=O)OC54c5ccc(O)cc5Oc5cc(O)ccc54)ncnc32)[C@H](O)[C@@H]1O)C(=O)O (some centres unmarked),"COMT (Homo sapiens, UniProt P21964)","binding, fluorescence anisotropy",,,,Kd,24.1 ± 2.2 µM
O=C(NNC(=S)Nc1cccc(C(F)(F)F)c1)c1cccn1-c1ccc(F)cc1,"AHSA1 (Homo sapiens, UniProt O95433)","binding, fluorescence quenching",acrylodan-labelled Aha1,,,Kd,1.74 µM
Cc1ccc(-c2noc(CCC(=O)NCCc3ccccc3)n2)c(=O)n1C(C)C,"B- and T-lymphocyte attenuator (BTLA, Homo sapiens, UniProt Q7Z6A9)","binding, microscale thermophoresis",,,,Kd,1.78 µM
COc1cc([C@@H]2c3cc4c(cc3C=C(C=O)[C@H]2C(=O)OCc2ccc(CBr)cc2)OCO4)cc(OC)c1OC,Leishmania infantum,iRFP fluorescence,"mouse splenocytes infected, amastigote, iRFP, ex vivo splenic explant",48 h,,EC50,51.9 ± 0.3 µM
Cc1cc(SCc2sc(-c3ccc(F)c(C#N)c3)nc2C)ccc1OCC(=O)O,HEK293T,,,18 h,,CC50,> 100 µM
Cc1ccc(C(=O)Nc2ccc(CN3CCN(C)CC3)c(C(F)(F)F)c2)cc1Nc1nc(-c2cccnc2)nc2c1cnn2C,EPHA2,"binding, microscale thermophoresis",kinase domain,"25 °C, 5% DMSO",,Kd,0.005 µM
Cc1cc(=O)[nH]c(-c2cccc(NC(=O)c3ccc(N(C)C)cc3)c2)n1,"Cystathionine gamma-synthase 1, chloroplastic (CGS1, Arabidopsis thaliana, UniProt P55217)","binding, microscale thermophoresis",,,,Kd,39.6 µM
CN(C)c1nc2nonc2nc1N(C)CCc1nc2cc(F)ccc2[nH]1,Tumor necrosis factor receptor superfamily member 9,microscale thermophoresis,,,,Kd,0.42 µM
Cc1ccc(C(=O)Nc2ccccc2C(=O)O)cc1S(=O)(=O)Nc1ccc(Cl)cc1,RPA1 N-terminal domain,"binding, fluorescence polarisation competition",,added: FITC-ATRIP probe,,Kd,44 µM
CN1C(=CC=CC=CC2=[N+](CCCCCC(=O)NCc3cn(CCNC(=O)c4ccc(S[C@@H]5O[C@H](CO)[C@H](O)[C@H](O)[C@H]5O)cc4)nn3)c3ccc(S(=O)(=O)[O-])cc3C2(C)C)C(C)(C)c2cc(S(=O)(=O)O)ccc21,"lecA (Pseudomonas aeruginosa, UniProt Q05097)","binding, fluorescence polarization",,"16 h, single titration, added: fluorescent reporter ligand",,Kd,3.84 µM and 3.95 µM and 4.56 µM
Cc1cc(NS(=O)(=O)c2cc(C(=O)Nc3ccccc3C(=O)O)ccc2C)ccc1Cl,RPA1 N-terminal domain,"binding, fluorescence polarisation competition",,added: FITC-ATRIP probe,,Kd,58 ± 11 µM
Cc1cc(C)nc(N=C(NCCc2c[nH]c3ccc(Cl)cc23)NC(=S)Nc2ccccc2C)n1,Tumor necrosis factor receptor superfamily member 9,"binding, microscale thermophoresis",,,,Kd,4.13 µM
Cc1ccc(C(=O)Nc2ccccc2C(=O)O)cc1S(=O)(=O)N[C@H]1CC[C@H](C)CC1 (relative stereo),RPA1 N-terminal domain,"binding, fluorescence polarisation competition",,added: FITC-ATRIP probe,,Kd,81 ± 10 µM
O=C(Nc1ccc(C(=O)N2CC(c3nccs3)C2)s1)[C@@H]1CCCN1,"YEATS domain-containing protein 4, YEATS domain; dimeric (Homo sapiens, UniProt O95619)",ITC,dimeric GST-YEATS domain,,,Kd,11.8 µM
O[C@@H]1[C@H](O)[C@@H]2C[C@@H]2[C@H]1n1cnc2c(NCc3cccc([125I])c3)nc(Cl)nc21,"ADORA3 (Homo sapiens, UniProt P0DMS8)","binding, kinetic radioligand binding",HEK293 cell membranes,,,Kd,0.0035 ± 0.00146 µM
Cc1cccc(C2NC(=O)c3c(Cl)cccc3N2)c1 (racemic),"Protein polybromo-1, BD2 (PBRM1, Homo sapiens, UniProt Q86U86, L207V)",ITC,,"mutant, racemate",,Kd,5 ± 2 µM
Cc1ccc(C(=O)Nc2cc(F)ccc2C(=O)O)cc1S(=O)(=O)Nc1cccc(Cl)c1,RPA1 N-terminal domain,"binding, fluorescence polarisation competition",,added: FITC-ATRIP probe,,Kd,22 ± 3 µM

# A few entries again:
Compound,tested on,test,system,setting,scale,quantity,result
O=C(NNC(=S)Nc1cccc(C(F)(F)F)c1)c1cccn1-c1ccc(F)cc1,"AHSA1 (Homo sapiens, UniProt O95433)","binding, fluorescence quenching",acrylodan-labelled Aha1,,,Kd,1.74 µM
NC(=O)c1ccc(-n2cccc2Cc2c(F)cccc2F)cc1N[C@H]1CC[C@H](O)CC1,"HSP90AA1 (Homo sapiens, UniProt P07900)",fluorescence polarization,,added: FITC-geldanamycin,,Kd,> 100 µM
CN(C)c1nc2nonc2nc1N(C)CCc1nc2cc(F)ccc2[nH]1,Tumor necrosis factor receptor superfamily member 9,microscale thermophoresis,,,,Kd,0.42 µM
O=C(O)c1ccncc1Nc1nn(CCN2CCC(F)(F)CC2)c2ccc(F)cc12,"KDM5B (Homo sapiens, UniProt Q9UGL1)","binding, isothermal titration calorimetry",,,,Kd,0.025 to 0.05 µM
Cc1ccc(C(=O)Nc2ccc(F)cc2C(=O)O)cc1S(=O)(=O)Nc1ccc(Br)cc1,RPA1 N-terminal domain,"binding, fluorescence polarisation competition",,added: FITC-ATRIP probe,,Kd,48 ± 8 µM
